Assay results collected from several papers.
Lines come from different studies, so protocols differ. ± gives the spread as reported.

The Cmax of `C[C@@H]1CC[C@H]2[C@@H](C)CO[C@@H]3O[C@@]4(C)CC[C@@H]1[C@]32OO4` is reported as 913 ng/mL (male Sprague-Dawley rat, plasma; oral, 100 mg/kg).
The Cmax of `CCCCCCCC(=O)OC[C@H](NC(=O)[C@H](CO)NC(=O)CN)C(=O)N[C@@H](Cc1ccccc1)C(=O)N[C@@H](CC(C)C)C(=O)N[C@@H](CO)C(=O)N1CCC[C@H]1C(=O)N[C@@H](CCC(=O)O)C(=O)N[C@@H](Cc1cnc[nH]1)C(=O)N[C@@H](CCC(N)=O)C(=O)N[C@@H](CCCNC(=N)N)C(=O)N[C@H](C(=O)N[C@@H](CCC(N)=O)C(=O)N[C@@H](CCC(N)=O)C(=O)N[C@@H](CCCNC(=N)N)C(=O)N[C@@H](CCCCN)C(=O)N[C@@H](CCC(=O)O)C(=O)N[C@@H](CO)C(=O)N[C@@H](CCCCN)C(=O)N[C@@H](CCCCN)C(=O)N1CCC[C@H]1C(=O)N1CCC[C@H]1C(=O)N[C@@H](C)C(=O)N[C@@H](CCCCN)C(=O)N[C@@H](CC(C)C)C(=O)N[C@@H](CCC(N)=O)C(=O)N1CCC[C@H]1C(=O)N[C@@H](CCCNC(=N)N)C(=O)O)C(C)C` is reported as 3.87 ± 3.46 ng/mL (ELISA; healthy humans, plasma; continuous intravenous infusion, 1 µg/kg/h, 65 min).
For `C[C@H](CCC(=O)N[C@@H](CCCCNC(=O)C(F)(F)F)C(=O)O)[C@H]1CC[C@H]2[C@@H]3[C@H](O)C[C@@H]4C[C@H](O)CC[C@]4(C)[C@H]3C[C@H](O)[C@]12C`, the Cmax was 11100 ± 2400 µM (C57BL/6J mice, gallbladder; oral, 50 mg/kg).
`CCc1c2c(nc3ccc(OC4OC(C(=O)O)C(O)C(O)C4O)cc13)-c1cc3c(c(=O)n1C2)COC(=O)C3(O)CC` (stereo not drawn) has a Cmax of 57 ng/mL (human patients, plasma; intravenous, 42 mg/m^2 of parent drug).
`CC1(C)C(=O)N(c2ccc(C#N)c(C(F)(F)F)c2)C(=S)N1c1ccc(C(=O)O)c(F)c1` has a Cmax of 130 ± 48.6 ng/mL (human, male, plasma; oral, 160 mg, single dose, after high-fat meal).
The Cmax of `CC(=CCC(O)C(C)=Cc1csc(C)n1)CC=CC(C)C(O)C(C)C(=O)C(C)(C)C(O)CC(=O)O` (stereo not drawn) is reported as 8.05 ± 2.08 ng/mL (human, plasma; intravenous infusion, 15.0 mg/m2 KOS-1584, 3 h infusion, cycle 1).
`COc1ccc(F)cc1S(=O)(=O)Nc1cnc2c(c1)C(=O)NCCO2` has a Cmax of 59.7 ng/mL (male C57BL/6 mouse, plasma; oral, 0.3 mg/kg, single dose).
`[2H]C([2H])([2H])C([2H])([2H])C([2H])([2H])OC(C(=O)OC1CCNCC1)(c1ccccc1)c1ccccc1` gave a Cmax of 180 ng/mL (healthy Japanese male subjects, plasma; oral, 18 mg once daily, day 16, fed, mean).
With `CCCCCCCCCCCCCC(=O)N[C@@H](Cc1ccccc1)C(=O)N[C@@H](CCC(=O)O)C(=O)N[C@@H](CCC(=O)O)C(=O)N[C@@H](CCC(=O)O)C(=O)N[C@@H](CCCNC(=N)N)C(=O)N[C@@H](CC(C)C)C(=O)O` the Cmax was 59600 ng/mL (plasma; intravenous, 5 mg/kg, HLPN formulation).
